Experimental data pooled from the literature.
Each numbered part is a random draw from the data of one study; scales do not carry over between parts. Substitutions count along the parent as printed.

Study 1 — technique: Spec-seq; molecule type: double-stranded DNA, one strand shown; medium: in vitro; tested at: not given; notes: whole probe, mean of replicates; relative to: not given; direction: lower = stronger binding; shared flanks, not repeated: GAGTCGTCTCGTCAGCAC … CCGTAGAGCACTCAGGTC
Target: Transcription factor SOX-2, HMG box (Sox2, Mus musculus, UniProt P48432, residues 41-119)
UniProt P48432, sequence (41-119, looked up): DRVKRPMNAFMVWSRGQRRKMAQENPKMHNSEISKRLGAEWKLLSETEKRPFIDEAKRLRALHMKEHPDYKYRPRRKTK
Sequence | relative binding energy [ln ratio]
CCAAGTT | 0.887
CATACTG | -0.193
CGCTGTT | 0.0161
CATTGGA | -0.241
CATCGCT | 0.693
TTCTGTT | -0.592
CTCTGTT | -0.676
CATCATG | 0.327
CATTGTG | -1.97
CATGCAC | 0.174
AGGGGTT | 1.21
TCCCGTT | 1
TTAAGTT | 0.211

Study 2 — technique: DHFR PCA, deep sequencing; medium: yeast; with: (+)-ABA 0.032 µM; relative to: wild-type fitted maximum; direction: higher = stronger binding
Target: ABI1, truncated, D143A, DHFR fusion (Arabidopsis thaliana)
Notes: methotrexate growth selection, single substitutions
Starting sequence: PYL1, truncated, DHFR fusion (Arabidopsis thaliana); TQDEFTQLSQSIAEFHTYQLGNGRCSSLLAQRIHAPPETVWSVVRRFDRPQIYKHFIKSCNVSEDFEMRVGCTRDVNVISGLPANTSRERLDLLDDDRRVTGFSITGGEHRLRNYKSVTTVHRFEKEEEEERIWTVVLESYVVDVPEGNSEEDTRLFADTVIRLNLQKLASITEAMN; partner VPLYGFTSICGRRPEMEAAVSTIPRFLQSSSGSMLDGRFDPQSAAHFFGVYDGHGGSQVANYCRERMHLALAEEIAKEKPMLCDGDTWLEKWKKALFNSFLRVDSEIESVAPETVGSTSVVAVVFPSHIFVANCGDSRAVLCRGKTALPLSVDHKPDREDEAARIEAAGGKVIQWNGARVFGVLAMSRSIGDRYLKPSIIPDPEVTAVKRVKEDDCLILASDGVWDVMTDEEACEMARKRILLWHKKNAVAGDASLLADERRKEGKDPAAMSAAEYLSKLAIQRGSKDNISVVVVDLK
Change | relative binding score
L82T | 8.62%
L28P | 0.0523%
S80R | 1.2%
A30W | 18%
S140C | 3.73%
S26W | -0.466%
G102M | 0.0762%
S87Q | 50.4%
V78W | 80%
T1F | 16%
Q31L | 2.13%
N149G | 52.9%
Y115T | 1.04%
E127M | 40%
Q167M | 19.3%

Study 3 — technique: Sort-seq; item: YFP reporter; medium: E. coli; notes: PhoQ-PhoP variant library; with: 10 µM Mg2+; relative to: high Mg2+ state; direction: higher = stronger signaling
Molecule: PhoQ, residues 284 288 289 292 302 303 TNSAEL
target | fold induction
PhoP, residues 12 14 15 18 19 NFFVT (Escherichia coli, UniProt P23836) | 11.7
PhoP, residues 12 14 15 18 19 VGHWL (Escherichia coli, UniProt P23836) | 2.13
PhoP, residues 12 14 15 18 19 TPWTL (Escherichia coli, UniProt P23836) | 0.799
PhoP, residues 12 14 15 18 19 LHHYF (Escherichia coli, UniProt P23836) | 23.5

Study 4 — target: CCNF, cyclin fold, Cln2 fusion (human); technique: yeast growth competition, sequencing; medium: yeast; notes: strong parent motif; relative to: not given; direction: higher = stronger binding
Starting sequence: WEE1 docking peptide (human); HKTFRKLRLFDTP
Change | normalised enrichment score
HKTFRKLRLGDTP [F10G] | 1.57
HNTFRKLRLFDTP [K2N] | 2.9
HKTFRKLRLFKTP [D11K] | 2.56
HKTNRKLRLFDTP [F4N] | 5.56
HKTFRKMRLFDTP [L7M] | 1.06
HDTFRKLRLFDTP [K2D] | 1.87
HKTFDKLRLFDTP [R5D] | 0.828
KKTFRKLRLFDTP [H1K] | 2.85
HFTFRKLRLFDTP [K2F] | 2.31
HKTERKLRLFDTP [F4E] | 1.49
HKTFRKLRLCDTP [F10C] | 1.83
HKTFRKLTLFDTP [R8T] | 1.99
HKTFRKLRLKDTP [F10K] | 1.4
HKTFRKLRHFDTP [L9H] | 0.694
HKTFRKLRLFCTP [D11C] | 2.55

Some of these lines once more (study 1):
Sequence | relative binding energy [ln ratio]
CGCTGTT | 0.0161
CATTGGA | -0.241
CATCGCT | 0.693
TTCTGTT | -0.592
CTCTGTT | -0.676
